Literature values, collected from citations in different studies.
± gives the spread as reported.
Sequence of UniProt Q14680 (whole entry, looked up): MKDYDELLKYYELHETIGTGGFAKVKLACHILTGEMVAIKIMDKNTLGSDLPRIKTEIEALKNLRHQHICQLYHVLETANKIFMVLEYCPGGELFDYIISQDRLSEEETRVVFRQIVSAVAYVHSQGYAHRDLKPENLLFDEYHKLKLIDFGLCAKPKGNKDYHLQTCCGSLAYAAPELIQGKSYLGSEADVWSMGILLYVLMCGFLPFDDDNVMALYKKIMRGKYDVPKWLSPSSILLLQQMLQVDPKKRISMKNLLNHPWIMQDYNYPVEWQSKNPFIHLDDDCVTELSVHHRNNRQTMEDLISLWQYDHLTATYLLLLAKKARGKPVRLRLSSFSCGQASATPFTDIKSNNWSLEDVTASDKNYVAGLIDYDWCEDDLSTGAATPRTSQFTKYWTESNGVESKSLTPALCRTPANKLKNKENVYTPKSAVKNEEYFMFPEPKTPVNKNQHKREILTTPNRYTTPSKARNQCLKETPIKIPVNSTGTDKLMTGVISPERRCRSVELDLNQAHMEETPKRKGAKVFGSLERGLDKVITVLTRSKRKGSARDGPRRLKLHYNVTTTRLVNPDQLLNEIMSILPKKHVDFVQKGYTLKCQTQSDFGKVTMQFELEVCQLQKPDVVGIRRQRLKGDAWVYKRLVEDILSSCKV

Structure (SMILES)	tested on	test	system	setting	how to read	measurement	value
O=C(/C=C/c1cccc(S(=O)(=O)Nc2ccccc2)c1)NO	Plasmodium falciparum	parasite growth	3D7	–	–	IC50	115 ± 78 nM
Cc1[nH]c(C)c(-c2ccc(-c3ccc(Cl)cc3)cc2)c(=O)c1Cl	Plasmodium falciparum	whole cell extended time	3D7	72 h	–	IC50	210 nM
Nc1cc(C(F)(F)F)c(-c2nc(N3CCOCC3)nc(N3CCOCC3)n2)cn1	MELK (Homo sapiens, UniProt Q14680)	enzyme activity	–	10 µM	baseline: untreated	remaining activity	64%
CC(=O)O[C@H](C)C(=O)CCCCC[C@@H]1NC(=O)[C@H]2CCCN2C(=O)[C@H](Cc2ccccc2)NC(=O)C(C)(C)NC1=O	Plasmodium falciparum	–	–	–	–	IC50	22.1 nM
O=C(Nc1ccc(Cl)c(Cl)c1)Nc1ccc(Cl)c(Cl)c1	Plasmodium falciparum	parasite growth	3D7	–	–	IC50	1160 nM
C[C@@H](O)C(=O)CCCCC[C@@H]1NC(=O)[C@H]2CCCN2C(=O)[C@H](Cc2ccccc2)NC(=O)C(C)(C)NC1=O	Plasmodium falciparum	–	–	–	–	IC50	17.4 nM
Cc1ccc(/C=C2/SC(=Nc3ccccc3)NC2=O)c(C)c1	Plasmodium falciparum	whole cell extended time	3D7	72 h	–	IC50	560 nM
C/C=C1\NC(=O)[C@H]2CSSCC/C=C/[C@H](CC(=O)N[C@H](C(C)C)C(=O)N2)OC(=O)[C@H](C(C)C)NC1=O	Plasmodium falciparum	parasite growth	Dd2 (chloroquine-resistant)	–	–	IC50	130 ± 40 nM
CCCCCCCCc1c(C)[nH]c(C)c(C#N)c1=O	Plasmodium falciparum	whole cell extended time	3D7	72 h	–	IC50	400 nM
N/C(CC(O)c1cc2c(F)cc(F)cc2c2cc(C(F)(F)F)ccc12)=N\c1ccc(F)cc1 (centres unmarked)	Plasmodium falciparum	–	3D7	–	–	IC50	2.3 ± 1.1 nM
Cc1[nH]c2ccccc2c1CCNCc1ccc(/C=C/C(=O)NO)cc1	Plasmodium falciparum	parasite growth	3D7	–	–	IC50	7 ± 4 nM

For quick reference, copied from above:
Structure (SMILES)	tested on	test	system	setting	how to read	measurement	value
Cc1[nH]c2ccccc2c1CCNCc1ccc(/C=C/C(=O)NO)cc1	Plasmodium falciparum	parasite growth	3D7	–	–	IC50	7 ± 4 nM
